# Measurements gathered from unrelated publications.
# Every numbered part comes from another study and shows a few of its results, in no order.

# Study 1
# Target: RING finger protein unkempt homolog, zinc fingers 1-6, GST-SBP tag (UNK, Homo sapiens, UniProt Q9C0B0, residues 30-357)
# Chain of UniProt Q9C0B0 (30-357, looked up): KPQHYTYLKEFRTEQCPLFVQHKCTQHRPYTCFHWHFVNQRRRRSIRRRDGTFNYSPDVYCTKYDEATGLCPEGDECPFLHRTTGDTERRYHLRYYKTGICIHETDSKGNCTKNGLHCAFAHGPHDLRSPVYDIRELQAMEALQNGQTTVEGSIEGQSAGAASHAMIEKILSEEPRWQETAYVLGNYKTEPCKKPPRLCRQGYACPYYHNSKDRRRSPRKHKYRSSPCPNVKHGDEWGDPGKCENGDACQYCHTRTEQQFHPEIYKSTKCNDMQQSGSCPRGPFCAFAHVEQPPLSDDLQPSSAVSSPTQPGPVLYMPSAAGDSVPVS
# Technique: RNA Bind-n-Seq
# Molecule type: RNA
# Medium: in vitro
# Tested at: not given
# Notes: RNA with constant flanks, ends assumed
# Baseline: input RNA pool
# Reading: higher = stronger binding
# Constant ends, left off below: GGGAGUUCUACAGUCCGACGAUC … CAACAGAGGAUUGAGCAUCA
Sequence,bound/input enrichment [ratio]
GUACUAUGUCAAAUCCUAUCUCAAUAAAUAGCAAUUCAUUUAACUCUCUUAGCUGCUUUUCCGGCCGAUAUGUCUUUGUGCCCACUUUAUACAAGAGGCAGCUAAAAGAGUAUAGCAGUA,12.4
AGAGAACAACACAUCCGGAGAGACAAAGCCACCAGCAACAUCUGCACGGCUCAGGCCCUUUCCGCCAACAUGGCUGCCAUGUUCGCCAUUUACCAUGGAUCCCAGGGGCUGAAGCACAUU,0.134
GUCAGAUUUGAAAAUGCAGAUUUAAAUGAUACAUCAAGAAAUCUGGAAUUUCAUGAAAUACACCGUACUGGGAAUGAACCGCCUUUGUUGAUUAUGAUUGGCUACAGUGAUGGAAUGCAG,0.457
CCUGCAGCCGGGGGACGCUUCUGGGUUGGAGGACCUUCUGGAUGUAGCGUCGGUGGAACCUUCCGAUACUCUCCUCUGGAAAAGCCACCAUGAAUUCGGUAGCUGGGAAUAAAGAGAGGC,0.169
AUAAGUAAUUCUCCCCACUUGAUUUUUCUUCUAUAAAAUCCCAUAGAACAAUGUUUAUGCUACCGCCAUUUAAUAUAUGUACAAAUUGUAAAGAAUAUGUAUAAAUGUUUUACACGAAUG,1.15
UCAGGUGUUUGUAGUUAUUCAUACUGUAAAAAGAGGUAGCAUGAUAUGCUGGGACGCAUAUUCCGACCAGGAGCCCAAGGUGGACUCCUCGUCUUGAAUUUGCCAUUAACGUGCUGCAUG,0.167
GACUCUCAUGUCAUUUGUAUACCUGUGGAUCUGCCCUGUAUUGUUAAUUCUAUUUUACAAAACCGAGGAAGUGUCUAAUAUAUGUGCAUAGUCAGUUGUCCUUUUUGAAAAAUAGGUUGA,0.345
UUGUUACUGGUUUUCUUUUUUUUUAAUGCUUCUGUUUUUAUCUCGCAAGUUGAUAUUGUACUCCGAUCUUAGCCAAAAACUUUUAUCUCUGAGAAAAAGUUUAAUAAAAAUGUACUAAAC,1.96
GUAACCAUCUACCGGGAAGAAGGCAUCGUAGGAUUUUUUGCGGGUCUCAUUCCUCGCCUCCCCGGUGACAUCAUUUCUUUGUGGCUGUGUAACUCACUGGCCUAUCUCAUCAAUACCUAU,0.571
AUUGACAAGUGCAGACAGCAGCUUCAUGAUAUUACUGUACCGUUAGAAGUUUUUGAAUAUACCGAUCAAGGUCGAAAUCCCCAGCUCUACACCAAAGAGUGCCUGGAGAGGGCUCUAGCU,1.95
AACCGUUAACAUCACUGCUGUGGCCUCAUACUCUUUUUUCCAUUUUCUACAAGAAGCCUUUCCGUAUAUGAAAAUUAUUACUCUUUUUGGGGUUUAAAGAAAUGGUCUGCAUAACCUGAA,0.316

# Study 2
# Target: Interferon regulatory factor 3, full length, phosphomimetic (IRF3, Homo sapiens, UniProt Q14653, residues 1-427, S386D/S396D/S398D/S402D/T404D/S405D)
# Technique: protein-binding microarray
# Molecule type: double-stranded DNA, one strand shown
# Medium: in vitro
# Tested at: 2540 nM top
# Notes: 60-bp whole probe
# Added: salmon DNA 0.4 mg/ml
# Baseline: random background probes
# Reading: higher = stronger binding
# Constant ends, left off below: GCCTAGCAC … GTCTTGATTCGCTTGACGCTGCTG
# Residues (chain): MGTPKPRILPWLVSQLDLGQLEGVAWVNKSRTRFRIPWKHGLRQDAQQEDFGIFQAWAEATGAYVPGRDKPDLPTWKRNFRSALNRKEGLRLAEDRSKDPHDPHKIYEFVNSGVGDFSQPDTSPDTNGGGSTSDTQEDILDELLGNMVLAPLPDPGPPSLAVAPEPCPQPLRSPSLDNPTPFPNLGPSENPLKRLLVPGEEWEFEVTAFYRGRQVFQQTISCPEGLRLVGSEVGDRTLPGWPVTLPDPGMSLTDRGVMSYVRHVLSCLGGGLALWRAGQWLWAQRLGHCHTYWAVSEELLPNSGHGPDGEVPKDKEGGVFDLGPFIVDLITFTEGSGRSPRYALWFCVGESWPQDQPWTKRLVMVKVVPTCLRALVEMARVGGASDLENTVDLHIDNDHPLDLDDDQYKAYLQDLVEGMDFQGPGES
Sequence,fitted relative affinity
TCAGATTTCCTTCACCCACTGTGCTAG,1.86 z-score
GAAGGTATCCTACTGCTGACGTGCTAG,2.6 z-score
GACGAACTGGGGTATCGTGACGTGCTA,-0.394 z-score
TCATATTTGTCCCTATTACTGTGCTAG,1.52 z-score
TCATTTTTCACCTGCACACTGTGCTAG,1.58 z-score
AGAGCTTGTAGCCATCTTTGGTGCTAG,0.435 z-score
CTTGGTAAATTTAGCCGACGGTGCTAG,-0.328 z-score
GACGGTTTCCTACTGCTTACGTGCTAG,5.28 z-score
CAAGTGGAGCCCAGGCCAGAGTGCTAG,-0.71 z-score
TTAGATATCAGGCTGGATTAGTGCTAG,-0.185 z-score
GACGATTTCGGGACTGGAGTCGTGCTA,2.1 z-score
TTATATTTTAATCACATATAGTGCTAG,0.908 z-score
CCCTTTTCATGCTCTTATATAGTGCTA,3.43 z-score
TTAGATTTCGGGTATGGATTAGTGCTA,1.12 z-score
TTTTCATTGTTTTTCATCATGTGCTAG,2.03 z-score
TATTCTCTACTTGTGTCTAGGTGCTAG,1.41 z-score
TTAGCACTGGGGTATCGGTTAGTGCTA,-0.0526 z-score
CCAGTGCTTGCTCCCCTGCAGTGCTAG,-0.536 z-score
TTAGGTCACCTTATCCTTTAGTGCTAG,1.42 z-score
TTAGATATCAGACTGTATTAGTGCTAG,0.346 z-score
TAAGAACTGGGGACTGGATTAGTGCTA,-0.899 z-score
GACGATATCAGTCTCTAGACGTGCTAG,1.21 z-score
TCATATTTGCTTCAGGTACTGTGCTAG,0.741 z-score
TACGGTTTCGGGTATCGGGACGTGCTA,4.26 z-score
GACGAACTGGGGTAACGAGACGTGCTA,-0.373 z-score

# Study 3
# Target: Ras GTPase-activating protein-binding protein 1, C-terminal RGG region (G3BP1, Homo sapiens, UniProt Q13283)
# Chain of UniProt Q13283 (whole entry, looked up): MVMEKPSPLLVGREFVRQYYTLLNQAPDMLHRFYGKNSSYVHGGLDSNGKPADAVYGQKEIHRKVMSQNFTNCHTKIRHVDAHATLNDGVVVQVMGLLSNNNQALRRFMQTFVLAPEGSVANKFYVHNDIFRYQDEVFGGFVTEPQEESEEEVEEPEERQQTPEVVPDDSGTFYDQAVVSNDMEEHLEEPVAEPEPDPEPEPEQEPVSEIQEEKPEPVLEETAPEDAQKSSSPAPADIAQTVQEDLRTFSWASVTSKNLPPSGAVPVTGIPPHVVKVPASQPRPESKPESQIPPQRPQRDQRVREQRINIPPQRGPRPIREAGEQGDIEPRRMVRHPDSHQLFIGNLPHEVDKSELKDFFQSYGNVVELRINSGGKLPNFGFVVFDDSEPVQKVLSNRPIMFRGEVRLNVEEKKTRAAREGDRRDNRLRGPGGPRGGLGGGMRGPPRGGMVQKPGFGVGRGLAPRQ
# Technique: RNA Bind-n-Seq
# Molecule type: RNA
# Medium: in vitro
# Tested at: 1 µM
# Notes: whole 134-nt RNA, ends assumed
# Added: 150 mM KCl
# Baseline: input library
# Reading: higher = stronger binding
# Constant ends, left off below: GGGAGUUCUACAGUCCGACGAUC … UGGAAUUCUCGGGUGUCAAGG
Sequence,log2 enrichment
CAAGUCCUGUGCUACACAUCGUAUGUACCGAAUCGGGGCCCGGGGCCCGGCCCGGAAAGUAUUAUGUUACGCCGUUCGGAUCUGCACUUC,-1.56
UAACUUUAGAGGAGGAUCUGAUGGAUAUGGCAGUGGACGUGGAUUUGGGGAUGGCUAUAAUGGGUAUGGAGGUGGACCUGGAGGUGGCAA,-1.08
ACCAUGCAGGUGGGCAUCUUUGGGAAGUGGGGCAAGGGGGGGAUAGGGAGGGGAAAAACACUUUGGGAACAGGUGGUCCCAGGUCGUUUC,-1.17
UGGGAGGUGGAUUUUGUUUAUUUUUUUAGCUCAUUUCCAGGGGUGGGAAUUUUUUUUUAAUAUGUGUCAUGUAUAAAGUUGUUUUUGAAA,4.27
CUCAAGUCCUGUGCUACACAUCGUAUGUACCGAAUCGGAAGGAAGGGGAAGGGAAAGUAUUAUGUUACGCCGUUCGGAUCUGCACUUCCA,-0.986
UAACUUUAGAGGAGGAUCUGAUGGAUAUGGCAGUGGACGUGGAUUUGGGGAUGGCUAUAAUGGGUAUGGAGGAGGACCUGGAGGUGUCAA,-0.539
UCCUGUGCUACACAUCGUAUGUACCGAAUCAAACCCCCCCAAAUUUUUAAACCCCCAAAAAAGUAUUAUGUUACGCCGUUCGGAUCUGCA,-0.589
UGGGAGGUGGAUUUUGUUUAUUUUUUUAGCUCAUUUCCAGGGGUGGGAAUUUUUUUUUAAUAUGUGUCAUGAAUAAAGUUGUUUUUCAAA,4.4
GGUGGACUAUGGUGCAACAGCAGAAGAGCUGGAAGCUCACUUUCAUGGCUGUGGUUCAGUCAACCGUGUUACCAUACUGUGUGACAAAUU,-1.17
CACAGACAACACGCACCCACACAGACACAGAGGGAAGGGGUUGGGAUGGGGACAUGGUGCACAGCAGGGCGGGGUAGGACCCCAGCCCCU,0.0889
CUGUGCUACACAUCGUAUGUACCGAAUCGGGGUUUUUUUGGGUUUUUUUGGGUUUUUUUGGAAAGUAUUAUGUUACGCCGUUCGGAUCUG,-1.17
ACCAUGCAGGUGGGCAUCUUUGGGAAGUGGGGCAAGGGGGGGAUAGGGAGGGGGGUAACACUUUGGGAACAGGUGGUAAAAGGUCGUUUC,-0.753
GUCCUGUGCUACACAUCGUAUGUACCGAAUCGGGUUUUUGGGGUUUUUGGUUUUUGGGGAAAGUAUUAUGUUACGCCGUUCGGAUCUGCA,-0.785
CAAGUCCUGUGCUACACAUCGUAUGUACCGAAUCGGGCCCCGGCCCCGGCCCCGGGAAAGUAUUAUGUUACGCCGUUCGGAUCUGCACUU,-2.18

# Study 4
# Target: Histone acetyltransferase KAT6A, both winged helices, GST fusion (KAT6A, Homo sapiens, UniProt Q92794, residues 1-181)
# Technique: protein binding microarray
# Molecule type: double-stranded DNA, one strand shown
# Medium: in vitro
# Tested at: not given
# Notes: 8-mer, flanks averaged, mean of 2 arrays, mostly near background
# Baseline: not given
# Reading: higher = stronger binding
# Residues (chain): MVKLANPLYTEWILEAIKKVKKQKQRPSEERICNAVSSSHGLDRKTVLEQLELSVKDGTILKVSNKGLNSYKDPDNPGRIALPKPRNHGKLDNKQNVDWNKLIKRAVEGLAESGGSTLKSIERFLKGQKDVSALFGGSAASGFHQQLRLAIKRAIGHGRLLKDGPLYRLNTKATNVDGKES
Sequence,E-score
CTCATGAA,-0.00321
TCAAACGA,0.111
AGGCGATC,-0.0383
GGTCTCAA,-0.00893
ACGTCCCG,0.153
CTACCCCC,-0.235
GCCCTCTA,-0.0241
GCGAGTCA,0.094
CACTGGAA,-0.14
TAGCTGGA,-0.201
ACCAAGAT,-0.127
ACGAGGAA,-0.0871
ATTTGCGG,0.157
AACCAGCT,-0.268
AGCCACGG,0.186
ATGCCTTA,-0.153
AGTAAAAT,-0.0222
TACGCACA,0.108
AAAGTAAC,-0.133
CCCCCCAG,-0.37
AGAATGCT,-0.193
ACTCGTCA,-0.0277
ATGTGTTC,-0.0173
ATCACCTA,-0.258
AACTTAGT,0.0194

# Study 5
# Target: Sal-like protein 4, full length isoform A (SALL4, Homo sapiens, UniProt Q9UJQ4, residues 1-1053)
# Chain of UniProt Q9UJQ4 (whole entry, looked up): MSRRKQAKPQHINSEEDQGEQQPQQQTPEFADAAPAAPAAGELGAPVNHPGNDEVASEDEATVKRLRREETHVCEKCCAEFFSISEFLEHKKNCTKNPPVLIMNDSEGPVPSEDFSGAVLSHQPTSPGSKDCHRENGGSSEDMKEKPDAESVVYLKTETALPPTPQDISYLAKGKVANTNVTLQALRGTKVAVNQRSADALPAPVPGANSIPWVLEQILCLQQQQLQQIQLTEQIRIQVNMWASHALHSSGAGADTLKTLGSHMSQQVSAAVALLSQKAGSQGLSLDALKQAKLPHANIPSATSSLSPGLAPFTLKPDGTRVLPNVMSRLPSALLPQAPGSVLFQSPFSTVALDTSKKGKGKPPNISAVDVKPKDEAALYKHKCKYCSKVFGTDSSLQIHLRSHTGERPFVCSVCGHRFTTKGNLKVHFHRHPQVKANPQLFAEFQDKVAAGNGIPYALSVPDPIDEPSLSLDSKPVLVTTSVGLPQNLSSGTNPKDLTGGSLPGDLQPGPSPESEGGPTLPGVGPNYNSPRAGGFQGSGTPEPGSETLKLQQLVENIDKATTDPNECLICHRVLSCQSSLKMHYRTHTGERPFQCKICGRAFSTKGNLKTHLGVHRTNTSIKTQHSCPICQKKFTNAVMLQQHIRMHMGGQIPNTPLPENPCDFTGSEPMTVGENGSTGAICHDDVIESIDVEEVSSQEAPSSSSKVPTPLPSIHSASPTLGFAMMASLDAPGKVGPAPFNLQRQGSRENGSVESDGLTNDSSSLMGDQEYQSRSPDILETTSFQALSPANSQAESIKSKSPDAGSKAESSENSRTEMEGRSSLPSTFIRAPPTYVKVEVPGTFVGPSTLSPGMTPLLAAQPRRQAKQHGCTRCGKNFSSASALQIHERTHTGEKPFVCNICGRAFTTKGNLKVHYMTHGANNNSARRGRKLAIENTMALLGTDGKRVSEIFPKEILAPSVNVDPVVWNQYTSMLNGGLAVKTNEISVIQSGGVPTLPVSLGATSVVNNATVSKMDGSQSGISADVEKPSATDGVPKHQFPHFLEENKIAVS
# Technique: universal PBM
# Molecule type: double-stranded DNA, one strand shown
# Medium: in vitro
# Tested at: 600 nM
# Notes: 8-mer, flanks averaged, mean of replicates
# Reading: higher = stronger binding
Sequence,E-score
CAGAGTAC,-0.0605
CACTGCAG,-0.0791
AAAATTCT,0.215
CGGGAGTA,-0.103
AAAGAATA,0.349
AACAGAAG,0.161
CAAGTCAG,-0.213
AGGCTATC,-0.0186
AGCAACTC,-0.149
ACCGCTAG,-0.243
AATGCATG,0.127
CCGACAGA,-0.158
GTTTAGAA,0.207
GCACTTCC,-0.194
CGGCCGAC,-0.226
CGATCCAA,-0.0436
CGCCAACG,-0.289

# Some of these lines once more (study 4):
Sequence,E-score
GCGAGTCA,0.094
CTCATGAA,-0.00321
ACGAGGAA,-0.0871
ACCAAGAT,-0.127
GGTCTCAA,-0.00893
TAGCTGGA,-0.201
